Experimental data pooled from the literature.
Numbers after ± are the reported error.
CFTR: Cystic fibrosis transmembrane conductance regulator (CFTR, Homo sapiens, UniProt P13569)
Chain of UniProt P13569 (whole entry, unmodified, looked up): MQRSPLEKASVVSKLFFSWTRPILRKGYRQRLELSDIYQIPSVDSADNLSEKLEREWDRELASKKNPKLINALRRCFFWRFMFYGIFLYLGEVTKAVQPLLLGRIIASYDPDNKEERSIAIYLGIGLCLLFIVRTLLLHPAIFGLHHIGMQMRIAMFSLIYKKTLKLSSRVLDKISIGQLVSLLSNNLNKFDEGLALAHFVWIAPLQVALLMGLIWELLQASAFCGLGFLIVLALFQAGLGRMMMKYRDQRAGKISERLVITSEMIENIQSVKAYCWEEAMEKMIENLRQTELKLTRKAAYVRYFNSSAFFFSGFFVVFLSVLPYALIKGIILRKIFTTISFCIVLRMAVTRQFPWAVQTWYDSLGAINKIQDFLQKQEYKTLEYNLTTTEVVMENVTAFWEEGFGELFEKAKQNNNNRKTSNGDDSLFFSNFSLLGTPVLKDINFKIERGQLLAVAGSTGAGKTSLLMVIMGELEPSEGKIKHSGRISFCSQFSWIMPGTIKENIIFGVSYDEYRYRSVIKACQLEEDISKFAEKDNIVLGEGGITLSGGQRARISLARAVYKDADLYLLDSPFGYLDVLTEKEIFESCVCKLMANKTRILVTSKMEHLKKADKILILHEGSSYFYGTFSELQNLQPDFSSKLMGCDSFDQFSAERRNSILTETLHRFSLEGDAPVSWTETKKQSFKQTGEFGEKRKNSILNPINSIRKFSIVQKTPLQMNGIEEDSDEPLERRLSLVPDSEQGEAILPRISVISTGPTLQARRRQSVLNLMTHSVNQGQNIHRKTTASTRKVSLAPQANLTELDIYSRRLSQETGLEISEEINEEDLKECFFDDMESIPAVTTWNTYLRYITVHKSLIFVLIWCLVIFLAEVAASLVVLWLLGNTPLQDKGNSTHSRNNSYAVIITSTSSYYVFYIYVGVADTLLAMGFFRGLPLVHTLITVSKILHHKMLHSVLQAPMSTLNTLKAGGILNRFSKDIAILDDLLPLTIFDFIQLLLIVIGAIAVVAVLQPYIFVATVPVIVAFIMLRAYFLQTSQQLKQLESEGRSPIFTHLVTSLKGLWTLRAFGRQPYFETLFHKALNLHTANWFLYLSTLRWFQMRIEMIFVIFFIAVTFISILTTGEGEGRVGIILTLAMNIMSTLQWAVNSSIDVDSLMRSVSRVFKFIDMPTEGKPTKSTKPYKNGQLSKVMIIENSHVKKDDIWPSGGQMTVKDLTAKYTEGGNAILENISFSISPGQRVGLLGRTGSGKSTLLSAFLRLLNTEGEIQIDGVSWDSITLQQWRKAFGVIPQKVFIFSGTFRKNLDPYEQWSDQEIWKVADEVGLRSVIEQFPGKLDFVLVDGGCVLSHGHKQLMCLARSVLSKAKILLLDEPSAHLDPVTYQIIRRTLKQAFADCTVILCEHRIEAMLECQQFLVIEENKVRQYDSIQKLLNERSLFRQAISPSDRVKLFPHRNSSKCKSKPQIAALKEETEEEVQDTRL
CFTR del508-508: Cystic fibrosis transmembrane conductance regulator (CFTR, Homo sapiens, UniProt P13569, del508-508)

With `NCCCc1ccccc1` the EC50 was about 6000 µM (CFTR; open probability, activator, inside-out patch clamp; -80 mV).
For `N#Cc1ccccc1Cn1c(=O)c(-c2cc(I)ccc2N)nc2ccccc21`, the EC50 was over 25 µM (CFTR; ion flux, activator, fluorescence).
`CCCCn1cc(S(=O)(=O)Nc2ccc(CC)cc2)c2cccnc21` has an EC50 of 2.9 ± 0.3 µM (CFTR del508-508; CFTR chloride current, potentiator, short-circuit current; FRT cells expressing CFTR; added: VX-809 corrected).
For `Cc1nc(NC(=O)C(C)(C)C)sc1-c1cc(C(=O)NCc2ccccc2)n(Cc2ccccc2)n1`, the EC50 was 0.75 µM (CFTR del508-508; iodide influx, corrector, YFP quenching; FRT expressing ΔF508-CFTR and YFP-H148Q/I152L; added: forskolin 20 µM + genistein 50 µM).
`Nc1ccc([N+](=O)[O-])cc1-c1nc2ccccc2n(Cc2ccccc2)c1=O` has an EC50 of 0.2 µM (CFTR; ion flux, activator, fluorescence).
`COc1ccc(NC(=O)c2cc(-c3sc(NC(=O)C(C)(C)C)nc3C)nn2Cc2cc(Cl)ccc2OC)cc1` gave an EC50 of 1 µM (CFTR del508-508; iodide influx, corrector, YFP quenching; FRT expressing ΔF508-CFTR and YFP-H148Q/I152L; added: forskolin 20 µM + genistein 50 µM).
With `O=C1/C(=C/c2ccc(-c3nn[nH]n3)cc2)SC(=S)N1c1cccc(C(F)(F)F)c1` the IC50 was about 1 µM (CFTR; ion current, inhibitor).
With `O=c1c(-c2cc(Br)ccc2NCc2ccccc2)nc2ccccc2n1Cc1ccccc1` the EC50 was about 15 µM (CFTR; channel activation, activator, YFP halide sensor; FRT cells; approximate, added: 125 nM forskolin).
The EC50 of `C=CCn1nc(-c2sc(NC(=O)C(C)(C)C)nc2C)cc1C(=O)Nc1ccc(OC)cc1` is reported as 0.93 µM (CFTR del508-508; iodide influx, corrector, YFP quenching; FRT expressing ΔF508-CFTR and YFP-H148Q/I152L; added: forskolin 20 µM + genistein 50 µM).

Repeated from above:
`CCCCn1cc(S(=O)(=O)Nc2ccc(CC)cc2)c2cccnc21` has an EC50 of 2.9 ± 0.3 µM (CFTR del508-508; CFTR chloride current, potentiator, short-circuit current; FRT cells expressing CFTR; added: VX-809 corrected).
